# Experimental data pooled from the literature.
# Every numbered part comes from another study and shows a few of its results, in no order.

# Set 1 — technique: RNA Bind-n-Seq; molecule type: RNA; sample: in vitro; tested at: 365 nM; baseline: no-protein control; direction: higher = stronger binding
# Target: RNA binding protein fox-1 homolog 2, RRM domain, GST-SBP tag (RBFOX2, Homo sapiens, UniProt O43251-10, residues 100-194)
# Notes: natural RNA segment, single round, ends assumed
Oligonucleotide,RBNS enrichment (R)
GGGAGUUCUACAGUCCGACGAUCUGACUCAGAGCUUCACCCACAAACUCAGGAGAACAUAAGCCUGCUCGUAAAGCUCAAUCCUUCUAUCAUGGCACCAAUCACAAGAACCUUGGACGUUUGACUGACUCUAUUGGAAUUCUCGGGUGCCAA,0.651
GGGAGUUCUACAGUCCGACGAUCGGCGACCUUGAAGCAGUUCUCGGUGUGUAGAGUCCACGUGACAGUCCCCACAGCCUCCCCAGAUAGCUGUGUGCCUGUGCGCUACUGCUGUGCCAUUUUCCCAACUUGGCUGGAAUUCUCGGGUGCCAA,0.5
GGGAGUUCUACAGUCCGACGAUCGGGUUGCUGGGUACCCCAUGCCCUGAGGGUUCCAGCACUGCUGCCAAGUGGCCUUGUCCCAGCUCCCCCUGCCCCCCCCAAGGCUGGUGUGAGUGUGCAAGUAUGUGUGCUGGAAUUCUCGGGUGCCAA,0.496

# Set 2 — technique: universal PBM; molecule type: double-stranded DNA, one strand shown; sample: in vitro; tested at: 600 nM; direction: higher = stronger binding
# Target: Sal-like protein 4, full length isoform A (SALL4, Homo sapiens, UniProt Q9UJQ4, residues 1-1053)
# Sequence of UniProt Q9UJQ4 (whole entry, looked up): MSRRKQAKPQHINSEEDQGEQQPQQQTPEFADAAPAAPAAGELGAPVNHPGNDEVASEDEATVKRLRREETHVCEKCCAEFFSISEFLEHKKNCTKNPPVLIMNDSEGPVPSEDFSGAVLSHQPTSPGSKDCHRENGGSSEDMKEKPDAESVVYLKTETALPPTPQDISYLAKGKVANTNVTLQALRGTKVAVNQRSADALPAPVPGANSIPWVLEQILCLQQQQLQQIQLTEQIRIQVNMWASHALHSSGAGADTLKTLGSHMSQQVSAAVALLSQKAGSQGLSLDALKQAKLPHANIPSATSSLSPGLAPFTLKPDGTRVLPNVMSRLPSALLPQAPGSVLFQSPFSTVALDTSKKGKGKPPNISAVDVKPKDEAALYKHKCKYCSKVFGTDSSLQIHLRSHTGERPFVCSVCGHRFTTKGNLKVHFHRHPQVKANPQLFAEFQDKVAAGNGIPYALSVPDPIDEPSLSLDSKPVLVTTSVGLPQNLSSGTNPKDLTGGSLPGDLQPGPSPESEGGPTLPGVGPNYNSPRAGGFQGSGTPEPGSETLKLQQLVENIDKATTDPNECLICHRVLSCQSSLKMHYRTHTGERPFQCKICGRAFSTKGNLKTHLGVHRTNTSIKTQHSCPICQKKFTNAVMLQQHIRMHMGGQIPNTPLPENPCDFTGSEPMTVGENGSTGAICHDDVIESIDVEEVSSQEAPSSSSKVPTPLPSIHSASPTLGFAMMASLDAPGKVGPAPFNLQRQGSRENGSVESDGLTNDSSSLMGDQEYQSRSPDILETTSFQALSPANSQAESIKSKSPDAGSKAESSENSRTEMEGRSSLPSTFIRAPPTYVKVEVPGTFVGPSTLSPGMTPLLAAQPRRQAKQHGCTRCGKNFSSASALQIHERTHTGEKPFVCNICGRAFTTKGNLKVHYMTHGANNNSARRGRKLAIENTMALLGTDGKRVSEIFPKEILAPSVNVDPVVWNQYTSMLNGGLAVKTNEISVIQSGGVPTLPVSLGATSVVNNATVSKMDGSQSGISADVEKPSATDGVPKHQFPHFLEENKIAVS
# Notes: 8-mer, flanks averaged, mean of replicates
Oligonucleotide,E-score
AACTATTC,0.15
CCTTCGTA,-0.148
ACTTTCCC,-0.123
AGCTTTAC,0.0507
GCGTTGGA,-0.182

# Set 3 — technique: protein-binding microarray; molecule type: double-stranded DNA, one strand shown; sample: in vitro; tested at: 250 nM; notes: 60-bp whole probe; together with: salmon DNA 0.4 mg/ml; baseline: random background probes; direction: higher = stronger binding
# Target: Interferon regulatory factor 5, full length, phosphomimetic (IRF5, Homo sapiens, UniProt Q13568-2, residues 1-514, K96S/S451D/S453D/S456D/S462D)
Oligonucleotide,log fluorescence
GCCTAGCACGACGGTATCGCCACTGGGGACGTGCTAGTCTTGATTCGCTTGACGCTGCTG,0.66 z-score
GCCTAGCACATGCTGGTCACTCTCTGGGCGTGCTAGGTCTTGATTCGCTTGACGCTGCTG,-0.444 z-score
GCCTAGCACAGTATTACCTCATCTTTCCCTGTGCTAGTCTTGATTCGCTTGACGCTGCTG,0.796 z-score
GCCTAGCACTTAGGTTTCGGACTGGGTTTGTGCTAGGTCTTGATTCGCTTGACGCTGCTG,5.31 z-score

# Further values, each from its own experiment
Molecule,target,test,system,setting,how to read,endpoint,result
"PhoQ, residues 284 288 289 292 302 303 NSMLDC","PhoP, residues 12 14 15 18 19 TQAML (Escherichia coli, UniProt P23836)","Sort-seq, item: YFP reporter",E. coli,"PhoQ-PhoP variant library, together with: 10 µM Mg2+","baseline: high Mg2+ state, higher = stronger signaling",fold induction,22.8

# For quick reference, copied from above (set 2):
Oligonucleotide,E-score
AGCTTTAC,0.0507
GCGTTGGA,-0.182
